Assay results gathered from unrelated publications.
A part holds a random share of what one study measured. Changes are numbered by the printed parent chain.

Study 1
Target: CCND2, cyclin fold, Cln2 fusion (human)
Technique: yeast growth competition, sequencing
Matrix: yeast
Setting: weak parent motif
Reference: not given
Reading: higher = stronger binding
Starting sequence: PKN2 docking peptide (human); VSAVQKLDFSDTM
Variant | normalised enrichment score
VSLVQKLDFSDTM [A3L] | 0.712
VSTVQKLDFSDTM [A3T] | 0.47
VSAVQKLHFSDTM [D8H] | 0.0564
VSASQKLDFSDTM [V4S] | -0.276
VSAVQKLDFSETM [D11E] | 0.851
VSAVQKLDFSCTM [D11C] | 0.85
GSAVQKLDFSDTM [V1G] | 0.641
VSAVQKLDGSDTM [F9G] | 0.163
VSAVQKLDMSDTM [F9M] | 0.0287
VFAVQKLDFSDTM [S2F] | 0.293
VGAVQKLDFSDTM [S2G] | 0.58
VSAVQKNDFSDTM [L7N] | 0.094
VSAVQKMDFSDTM [L7M] | 0.0745
VSAVQKLDFSDCM [T12C] | 0.715
VSAHQKLDFSDTM [V4H] | 0.189
VSAVQKLDFSDTH [M13H] | 0.593
VSAVQKLGFSDTM [D8G] | 0.163
VSAVQKLDNSDTM [F9N] | 0.0222
VSAVQKLDFSITM [D11I] | -0.12
VSAVQALDFSDTM [K6A] | 0.277
VSAVQKLDFSDFM [T12F] | 0.716
VSAVQKLDFPDTM [S10P] | 0.371

Study 2
Target: ABI1, truncated, D143A, DHFR fusion (Arabidopsis thaliana)
Technique: DHFR PCA, deep sequencing
Matrix: yeast
Setting: methotrexate growth selection, single substitutions
Together with: (+)-ABA 1.4 µM
Reference: wild-type fitted maximum
Reading: higher = stronger binding
Starting sequence: PYL1, truncated, DHFR fusion (Arabidopsis thaliana); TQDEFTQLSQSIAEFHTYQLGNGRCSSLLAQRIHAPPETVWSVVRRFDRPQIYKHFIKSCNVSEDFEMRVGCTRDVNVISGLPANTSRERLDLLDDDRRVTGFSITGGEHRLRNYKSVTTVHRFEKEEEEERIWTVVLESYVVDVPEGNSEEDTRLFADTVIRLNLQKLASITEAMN; partner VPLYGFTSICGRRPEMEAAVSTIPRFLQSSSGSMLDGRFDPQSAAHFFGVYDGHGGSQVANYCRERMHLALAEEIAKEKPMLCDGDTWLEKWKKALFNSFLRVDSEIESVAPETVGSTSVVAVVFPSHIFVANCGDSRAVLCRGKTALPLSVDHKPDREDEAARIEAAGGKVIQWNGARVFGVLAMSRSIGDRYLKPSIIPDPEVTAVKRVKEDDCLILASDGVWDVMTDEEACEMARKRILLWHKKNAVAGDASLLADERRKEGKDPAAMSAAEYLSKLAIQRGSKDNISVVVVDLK
Variant | relative binding score [%]
A30F | 53.3
E139P | 16.5
T1M | 66.7
V136Q | -0.629
R99S | 5.76
T119N | -2.81
P50V | -7.67
F103E | -0.848
I133A | 78.9
Y18T | 11.8
I33N | -7.14
F56R | 3.46
C25I | 32.5
T120G | -3.75
F56P | 0.195
C60K | -17.5
S104M | -2.56

Study 3
Target: Interferon regulatory factor 5, full length, phosphomimetic (IRF5, Homo sapiens, UniProt Q13568-2, residues 1-514, S451D/S453D/S456D/S462D)
Technique: protein-binding microarray
Form: double-stranded DNA, one strand shown
Matrix: in vitro
Concentration: 940 nM top
Setting: 60-bp whole probe
Together with: salmon DNA 0.4 mg/ml
Reference: random background probes
Reading: higher = stronger binding
Shared flanks, not repeated: GCCTAGCAC … GTCTTGATTCGCTTGACGCTGCTG
Strand | fitted relative affinity
GACGGTATCCTACTGCTGACGTGCTAG | -0.121 z-score
TTAGGTTGCGACTATCGGTTAGTGCTA | 1 z-score
TTCTCTTTTATTTTTTTTATGTGCTAG | 2.67 z-score
TTATAACTGAGTTTCGATTAGTGCTAG | 8.07 z-score
TTAGGTTTCGGGACTGGGTAAGTGCTA | 8.87 z-score
TTAGTTATCGGGTATCGGTTAGTGCTA | 3.66 z-score
GATGGTATCGACACTGGGGACGTGCTA | 5.31 z-score
TTAGCTTTCGGACTGGGTTAGTGCTAG | 2.16 z-score
TCATGTCTCTGGCCTGGGACTGTGCTA | 0.0136 z-score
CCACTTTCAGTTCTCCCTTTGTGCTAG | 4.35 z-score
GACGGTCTGGGTTTCGGGACGTGCTAG | 3.07 z-score
TCAATGATCTTCCTTCATACTGTGCTA | 0.804 z-score
AGTCTTCTCCTCTAGGTTCTCGTGCTA | 0.603 z-score
GACGGTATCGGGTATCGGGAGGTGCTA | 5.46 z-score
GACGGTATCGACTATGGGGACGTGCTA | 4.66 z-score
TCAATTTTCCCTCCCTAACTGTGCTAG | 1.38 z-score
TTACGTTTCGGTCTCGGTTAGTGCTAG | 10.8 z-score
TCAGCTTTCTTTTATGCACTGTGCTAG | 1.01 z-score
CTAGAACTGAGTATCGATTAGTGCTAG | 4.34 z-score

Study 4
Target: UBE2Q2 UBC core domain (UniProt Q8WVN8)
Chain of UniProt Q8WVN8 (whole entry, looked up): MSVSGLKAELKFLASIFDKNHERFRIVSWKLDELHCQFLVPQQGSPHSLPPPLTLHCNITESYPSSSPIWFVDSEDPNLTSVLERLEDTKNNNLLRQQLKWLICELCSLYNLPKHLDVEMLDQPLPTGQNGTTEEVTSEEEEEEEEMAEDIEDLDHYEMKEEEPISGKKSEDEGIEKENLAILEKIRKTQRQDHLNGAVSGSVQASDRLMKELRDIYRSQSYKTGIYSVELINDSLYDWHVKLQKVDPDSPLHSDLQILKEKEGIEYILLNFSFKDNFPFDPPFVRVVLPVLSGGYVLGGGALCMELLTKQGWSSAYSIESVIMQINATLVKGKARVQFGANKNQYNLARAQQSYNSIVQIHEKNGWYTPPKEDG
Technique: yeast two-hybrid
Matrix: yeast
Setting: mostly zero background
Reference: not given
Reading: higher = stronger interaction
B1: RFPL2 RING domain (UniProt O75678); chain MAALFQEASSCPVCSDYLEKPMSLECGCAVCLKCINSLQKEPHGEDLLCCCSSMVSRKNKIRR
B2: TRIM35 RING domain (UniProt Q9UPQ4); chain PSRSFKEELLCAVCYDPFRDAVTLRCGHNFCRGCVSRCWEVQVSPTCPVCKDRASPADLRT
B3: PEX2 RING domain (UniProt P28328); chain DNTLATSGKECALCGEWPTMPHTIGCEHIFCYFCAKSSFLFDVYFTCPKCGTEVHSLQPLK
B4: TRIM55 RING domain (UniProt Q9BYV6); chain TMDNLEKQLICPICLEMFTKPVVILPCQHNLCRKCASDIFQASNPYLPTRGGTTMASGGRFRCPSCRHEVVLDRHG
B5: NSMCE1 RING domain (UniProt Q8WV22); chain RETYPDAVKICNICHSLLIQGQSCETCGIRMHLPCVAKYFQSNAEPRCPHCNDYWPHEIPKV
B6: ANKIB1 RING domain (UniProt Q9P2G1); chain LSPGDLDTSLCDICMCSISVFEDPVDMPCGHDFCRGCWESFLNLKIQEGEAHNIFCPAYDCFQLVPVDIIE
B7: RNF175 RING domain (UniProt Q8N4F7); chain LPTRSLSDNICAVCGQKIIVELDEEGLIENTYQLSCNHVFHEFCIRGWCIVGKKQTCPYCKEKVDLKRMIS
B8: TRIM15 RING domain (UniProt Q9C019); chain SLKVVHELPACTLCAGPLEDAVTIPCGHTFCRLCLPALSQMGAQSSGKILLCPLCQEEEQAETPMA
B9: RNF112 RING domain (UniProt Q9ULX5); chain QPMAPRELPTCSICLERLRDPISLDCGHDFCIRCFSTHRLPGCEPPCCPECRKICKQKRGLR
B10: TRIM38 RING domain (UniProt O00635); chain STKKMMEEATCSICLSLMTNPVSINCGHSYCHLCITDFFKNPSQKQLRQETFCCPQCRAPFHMDSLRP
Sequence | lacZ reporter activity
B1 (RFPL2 RING domain) | 0
B2 (TRIM35 RING domain) | 0
LKQVSIRENCCSLCCDEVADTQLKPCGHSDLCMDCALQLETCPLCRKEIVSRIRQI (RSPRY1 RING domain (UniProt Q96DX4)) | 0
B3 (PEX2 RING domain) | 0
B4 (TRIM55 RING domain) | 0
B5 (NSMCE1 RING domain) | 0
B6 (ANKIB1 RING domain) | 0
B7 (RNF175 RING domain) | 0
ISNDSETLEECMVCSDMKRDTLFGPCGHIATCSLCSPRVKKCLICKEQVQSRTKIE (MIB1 RING domain (UniProt Q86YT6)) | 0
B8 (TRIM15 RING domain) | 0
B9 (RNF112 RING domain) | 0
B10 (TRIM38 RING domain) | 0

Study 5
Target: Centromere-binding protein 1, full length, N-terminal tag (CBF1, Saccharomyces cerevisiae, UniProt P17106, residues 1-351)
Chain of UniProt P17106 (whole entry, looked up): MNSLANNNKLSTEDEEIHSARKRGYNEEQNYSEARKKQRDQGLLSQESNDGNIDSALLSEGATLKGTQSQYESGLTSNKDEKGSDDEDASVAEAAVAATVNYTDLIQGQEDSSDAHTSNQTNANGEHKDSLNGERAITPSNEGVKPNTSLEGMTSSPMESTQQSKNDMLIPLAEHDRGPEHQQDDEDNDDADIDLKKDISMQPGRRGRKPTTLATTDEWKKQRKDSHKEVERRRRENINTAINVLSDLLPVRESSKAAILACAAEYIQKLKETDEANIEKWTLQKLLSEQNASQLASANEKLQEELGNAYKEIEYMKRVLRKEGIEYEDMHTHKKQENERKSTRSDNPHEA
Technique: protein-binding microarray
Form: double-stranded DNA, one strand shown
Matrix: in vitro
Concentration: 0.8 µM
Setting: whole 60-bp probe, no competitor
Reading: higher = stronger binding
Strand | fluorescence intensity [a.u.]
TGTACGAAGCTATTACGCCTGATTATAGTAGTTAGGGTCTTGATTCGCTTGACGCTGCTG | 533
GAATCACTTGATGTCATCAAGGCATTCACCAGATAGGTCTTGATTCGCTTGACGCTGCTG | 550
CTACGACCGAATCCACCCGTGATGCCAACTTCATTCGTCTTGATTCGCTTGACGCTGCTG | 703
CTATCTTTTACTAGCCACGTGAAATGATGATAATTCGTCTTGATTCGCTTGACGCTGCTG | 3580
CTAGGCTGATTACTTCATATGATCACTAATTAATTCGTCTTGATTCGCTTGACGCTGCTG | 691
GAATTCGTGCTGATCCACGGGGTATTCAATTGATAGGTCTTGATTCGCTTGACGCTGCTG | 704
GAAGATGTGTTTTATCACGAGGCCCAATCGAAATAGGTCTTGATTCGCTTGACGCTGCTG | 965
GAAAAGATGTATGCACCCGTGCCCCCGCTGTAGTAGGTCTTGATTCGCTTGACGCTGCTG | 563
CTAAATGCGACGAATGGCATCATGCCTATTATTTTCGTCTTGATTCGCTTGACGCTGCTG | 532
GAACACAATTAATGTCATGTGGCCGACGTAATGTAGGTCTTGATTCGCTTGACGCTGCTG | 1970
CTACTCTGCGCAGTGCACGTTCAAAAGAAAAGCTTCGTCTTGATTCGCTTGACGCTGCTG | 591
CTAAGAAGCGATCGTCACCTTCCATTGGGGTTATTCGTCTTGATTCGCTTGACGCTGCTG | 480
CTACAGCTTTGCAATCATATGATATTTTCGCCCTTCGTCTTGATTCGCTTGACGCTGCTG | 659
CTAGTAAATTGACCCAGCGTGACGACAGTAGACTTCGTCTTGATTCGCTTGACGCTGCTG | 658
CTAAGCTAGATTAAAAACGTGCGTATTACTCATTTCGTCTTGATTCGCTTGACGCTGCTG | 591
GAAATTAGTCCACCTCGCACGTGAAAAGCTGGGTAGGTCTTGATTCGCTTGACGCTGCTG | 3090
CTATCTACCGAACGTCACCGCTGGTACCATGCATTCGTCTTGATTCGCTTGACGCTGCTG | 524
CTAACGCGTCCACACCACCTCACCCTCGAAATGTTCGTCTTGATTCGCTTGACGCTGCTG | 569
GAATTAAGAGGACCTCATCAGACATGCTCGGACTAGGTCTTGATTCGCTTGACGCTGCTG | 480
CTACCACACCTTCCCCACGCAGCAAGCGATAACTTCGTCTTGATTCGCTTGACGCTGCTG | 539

A few entries again (study 4):
Sequence | lacZ reporter activity
B5 (NSMCE1 RING domain) | 0
ISNDSETLEECMVCSDMKRDTLFGPCGHIATCSLCSPRVKKCLICKEQVQSRTKIE (MIB1 RING domain (UniProt Q86YT6)) | 0
LKQVSIRENCCSLCCDEVADTQLKPCGHSDLCMDCALQLETCPLCRKEIVSRIRQI (RSPRY1 RING domain (UniProt Q96DX4)) | 0
B2 (TRIM35 RING domain) | 0
B9 (RNF112 RING domain) | 0
B1 (RFPL2 RING domain) | 0
B8 (TRIM15 RING domain) | 0
B6 (ANKIB1 RING domain) | 0
B10 (TRIM38 RING domain) | 0
